Results gathered from unrelated publications.
Every numbered part comes from another study and shows a few of its results, in no order.

Set 1
Target: Serine/threonine-protein kinase Nek7 (NEK7, Homo sapiens, UniProt Q8TDX7)
Read-out: enzyme activity
Action: inhibitor
Tested at: 0.5 µM
Relative to: control
Target sequence (Q8TDX7 1-302): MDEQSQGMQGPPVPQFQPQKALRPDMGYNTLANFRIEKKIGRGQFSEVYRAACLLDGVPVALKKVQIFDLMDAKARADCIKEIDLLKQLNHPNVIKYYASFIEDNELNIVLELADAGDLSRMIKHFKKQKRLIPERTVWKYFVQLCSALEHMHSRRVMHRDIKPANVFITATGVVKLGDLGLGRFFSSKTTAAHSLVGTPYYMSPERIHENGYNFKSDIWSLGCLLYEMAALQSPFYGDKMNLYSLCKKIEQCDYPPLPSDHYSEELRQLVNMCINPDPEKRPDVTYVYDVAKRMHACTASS
| Compound | remaining activity [%] |
| --- | --- |
| O=C(CCCc1ccc(-c2ccccc2F)cc1)Nc1ccc(O)cc1 | 97.3 |
| O=C1NC(=O)C(c2cn(CCCn3ccnc3)c3ccccc23)=C1Nc1ccccc1 | 102 |
| NCCNc1ncc(C(N)=O)c(Nc2cccc(C(F)(F)F)c2)n1 | 101 |
| Cc1cccc(-c2[nH]c(C(C)(C)C)nc2-c2ccc3c(c2)OCO3)n1 | 106 |
| OCC(O)CCON=C1C(c2c(O)[nH]c3ccccc23)=Nc2ccccc21 (centres unmarked) | 98.9 |
| C#Cc1cccc(Nc2ncnc3cc(OCCOC)c(OCCOC)cc23)c1 | 97.4 |
| Nc1[nH]nc2nc3ccccc3nc12 | 93.1 |
| CNC(=O)c1cc(Oc2ccc(NC(=O)Nc3ccc(Cl)c(C(F)(F)F)c3)cc2)ccn1 | 98.2 |
| Cc1nc(-c2ccccc2)c(-c2ccncc2)o1 | 102 |
| O=C(O)c1ccc2c3c1cccc3c(=O)n1c3ccccc3nc21 | 105 |
| Nc1ncnc2n[nH]c(Nc3ccc(F)cc3)c12 | 97 |
| COc1cc2ncnc(Nc3ccc(F)c(Cl)c3)c2cc1OCCCN1CCOCC1 | 96.9 |
| Oc1ccc(-c2nc(-c3ccncc3)c(-c3ccc(F)cc3)[nH]2)cc1 | 103 |
| Cc1ccc(NC(=O)c2ccc(CN3CCN(C)CC3)cc2)cc1Nc1nc(-c2cccnc2)cs1 | 96.3 |
| CN(C)c1ccc(C=C2C(=O)Nc3ccccc32)cc1 | 102 |
| COc1cc2nccc(Oc3ccc(NC(=S)NC(=O)c4ccccc4C)cc3)c2cc1OC | 106 |

Set 2
Target: Interferon regulatory factor 5, full length, phosphomimetic (IRF5, Homo sapiens, UniProt Q13568-2, residues 1-514, K96S/S451D/S453D/S456D/S462D)
Method: protein-binding microarray
Molecule type: double-stranded DNA, one strand shown
Medium: in vitro
Tested at: 250 nM
Setting: 60-bp whole probe
With: salmon DNA 0.4 mg/ml
Relative to: random background probes
Reading: higher = stronger binding
Shared flanks, not repeated: GCCTAGCAC … GTCTTGATTCGCTTGACGCTGCTG
| Strand | log fluorescence |
| --- | --- |
| TTAGGTTTCCTACTGCTCTAGTGCTAG | 0.231 z-score |
| GACGGTATCCTACCGCTGACGTGCTAG | -0.277 z-score |
| GACGGTTTCGCCTTTCGGGACGTGCTA | 5.89 z-score |
| TTAGGTACCCTTTTCCTTTAGTGCTAG | 0.384 z-score |
| AAGGTAGCACTTCACAGCAAGTGCTAG | -0.483 z-score |
| GACGGTTTCGGGCTCGGGACGTGCTAG | 4.54 z-score |
| TTAGGACTGCTACTGCGTTAGTGCTAG | -0.517 z-score |
| GACGGACTGGGACTGGAGACGTGCTAG | -0.788 z-score |

Set 3
Target: Centromere-binding protein 1, full length, N-terminal tag (CBF1, Saccharomyces cerevisiae, UniProt P17106, residues 1-351)
Sequence of UniProt P17106 (whole entry, looked up): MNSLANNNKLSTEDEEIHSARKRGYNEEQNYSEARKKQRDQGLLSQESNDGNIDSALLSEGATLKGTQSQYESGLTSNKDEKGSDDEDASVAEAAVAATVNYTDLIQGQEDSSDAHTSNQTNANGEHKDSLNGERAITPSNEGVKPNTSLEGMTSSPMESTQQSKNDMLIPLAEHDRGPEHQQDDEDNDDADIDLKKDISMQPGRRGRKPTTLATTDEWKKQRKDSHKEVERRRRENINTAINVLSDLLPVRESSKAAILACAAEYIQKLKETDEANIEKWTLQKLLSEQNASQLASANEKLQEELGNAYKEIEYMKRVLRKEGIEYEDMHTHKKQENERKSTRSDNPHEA
Method: protein-binding microarray
Molecule type: double-stranded DNA, one strand shown
Medium: in vitro
Tested at: 0.8 µM
Setting: whole 60-bp probe, no competitor
Reading: higher = stronger binding
Shared flanks, not repeated: … GTCTTGATTCGCTTGACGCTGCTG
| Strand | fluorescence intensity [a.u.] |
| --- | --- |
| GAATTTCGACTTTCTCACGCTGATGATGATGACTAG | 581 |
| GAAGACATGGCGTGAAACGTGTAGGCAAGGAAGTAG | 620 |
| CCTAACTACTATAGTCACGTGCGATAGCTTCGTACA | 14100 |
| CTATGTATATGAGATGTCATGAGCATGAATTATTTC | 595 |
| CTAAACAAGAAGCAACAGCTGAGATATTTGTTTTTC | 499 |
| GAAGTGTGGAGGATCCATGTGGTTTCGTTAGCGTAG | 531 |
| CTATAACGTCACACTCACATGAGTTTTCCTGACTTC | 617 |
| GAAAATTACTACCATCACCTGCATCAAATTCCATAG | 729 |

Set 4
Target: 5-hydroxytryptamine receptor 1D (HTR1D, Homo sapiens, UniProt P28221)
Sequence of UniProt P28221 (whole entry, looked up): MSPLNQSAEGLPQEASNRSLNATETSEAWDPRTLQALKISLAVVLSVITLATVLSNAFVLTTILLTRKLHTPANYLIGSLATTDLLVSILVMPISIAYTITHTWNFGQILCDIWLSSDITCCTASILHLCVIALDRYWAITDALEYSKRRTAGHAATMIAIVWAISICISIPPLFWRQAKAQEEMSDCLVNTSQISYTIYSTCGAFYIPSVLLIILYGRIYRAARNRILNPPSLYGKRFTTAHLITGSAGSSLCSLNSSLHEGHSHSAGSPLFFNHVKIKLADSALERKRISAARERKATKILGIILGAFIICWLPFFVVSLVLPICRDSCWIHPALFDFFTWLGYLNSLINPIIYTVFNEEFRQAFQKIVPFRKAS
Read-out: cell-free assay
Tested at: 10 µM
| SMILES | inhibition [%] |
| --- | --- |
| Cc1c(N2CCCC2)nc2ccc(Br)cc2c1C(=O)NC[C@H](CCC(=O)O)c1ccccc1Cl | -21 |
| CN1C(=O)[C@@H](N2CCc3cn(Cc4ccccc4)nc3C2=O)COc2ccccc21 | -13.7 |
| Cc1cc(C)c(-n2ccn3nc(-c4cccnc4)cc23)cc1NC(=O)c1cc(C#N)cc(S(F)(F)(F)(F)F)c1 | 9.27 |

For quick reference, copied from above (set 2):
| Strand | log fluorescence |
| --- | --- |
| TTAGGACTGCTACTGCGTTAGTGCTAG | -0.517 z-score |
| GACGGACTGGGACTGGAGACGTGCTAG | -0.788 z-score |
